Assay results of several laboratories.
A part holds a random share of what one study measured. Positions count from the first letter of the parent shown.

Sample 1 — method: universal PBM; form: double-stranded DNA, one strand shown; sample: in vitro; concentration: 600 nM; direction: higher = stronger binding
Target: Sal-like protein 4, full length isoform A (SALL4, Homo sapiens, UniProt Q9UJQ4, residues 1-1053)
Sequence of UniProt Q9UJQ4 (whole entry, looked up): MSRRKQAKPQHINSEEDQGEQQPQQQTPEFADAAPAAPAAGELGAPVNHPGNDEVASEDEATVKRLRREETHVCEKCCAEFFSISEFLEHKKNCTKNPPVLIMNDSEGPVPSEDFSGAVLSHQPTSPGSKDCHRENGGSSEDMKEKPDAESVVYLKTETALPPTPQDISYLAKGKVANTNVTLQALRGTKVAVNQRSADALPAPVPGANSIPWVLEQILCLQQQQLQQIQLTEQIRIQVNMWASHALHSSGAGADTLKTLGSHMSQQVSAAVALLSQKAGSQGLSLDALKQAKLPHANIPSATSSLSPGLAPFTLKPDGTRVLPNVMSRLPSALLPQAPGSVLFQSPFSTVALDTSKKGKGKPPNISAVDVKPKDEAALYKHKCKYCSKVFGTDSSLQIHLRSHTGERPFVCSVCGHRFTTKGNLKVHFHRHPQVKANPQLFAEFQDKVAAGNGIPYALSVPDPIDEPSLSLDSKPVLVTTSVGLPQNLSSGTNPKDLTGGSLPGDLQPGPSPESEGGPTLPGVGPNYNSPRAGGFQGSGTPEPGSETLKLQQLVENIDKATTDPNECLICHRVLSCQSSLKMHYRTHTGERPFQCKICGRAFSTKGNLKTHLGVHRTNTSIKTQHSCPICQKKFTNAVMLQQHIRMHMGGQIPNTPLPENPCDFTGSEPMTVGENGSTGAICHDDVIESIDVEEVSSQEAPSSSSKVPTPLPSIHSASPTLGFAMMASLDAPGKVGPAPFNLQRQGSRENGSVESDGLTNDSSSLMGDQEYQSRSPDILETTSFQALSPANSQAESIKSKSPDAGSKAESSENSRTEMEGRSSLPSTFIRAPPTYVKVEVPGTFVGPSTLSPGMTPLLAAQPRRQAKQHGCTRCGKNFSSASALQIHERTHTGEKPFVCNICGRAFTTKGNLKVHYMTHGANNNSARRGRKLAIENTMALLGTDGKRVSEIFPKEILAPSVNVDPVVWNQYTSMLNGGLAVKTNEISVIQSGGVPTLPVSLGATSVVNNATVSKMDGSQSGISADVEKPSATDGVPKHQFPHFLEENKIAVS
Notes: 8-mer, flanks averaged, mean of replicates
The E-score of `GTGATAAC` is reported as 0.236.
`ATTGTCTG` gave an E-score of 0.215.
For `CTTAGTAC`, the E-score was 0.0597.
For `AAAACGAT`, the E-score was 0.244.
`CAGTGAGC` has an E-score of -0.164.
For `GAATGCTC`, the E-score was -0.134.
For `AGGTTTCG`, the E-score was -0.172.
`GAGTATAA` has an E-score of 0.256.
`GCTGTTTA` has an E-score of 0.191.

Sample 2 — method: RNA Bind-n-Seq; form: RNA; sample: in vitro; concentration: not given; baseline: input RNA pool; direction: higher = stronger binding
Target: RING finger protein unkempt homolog, zinc fingers 1-6, GST-SBP tag (UNK, Homo sapiens, UniProt Q9C0B0, residues 30-357)
Sequence of UniProt Q9C0B0 (30-357, looked up): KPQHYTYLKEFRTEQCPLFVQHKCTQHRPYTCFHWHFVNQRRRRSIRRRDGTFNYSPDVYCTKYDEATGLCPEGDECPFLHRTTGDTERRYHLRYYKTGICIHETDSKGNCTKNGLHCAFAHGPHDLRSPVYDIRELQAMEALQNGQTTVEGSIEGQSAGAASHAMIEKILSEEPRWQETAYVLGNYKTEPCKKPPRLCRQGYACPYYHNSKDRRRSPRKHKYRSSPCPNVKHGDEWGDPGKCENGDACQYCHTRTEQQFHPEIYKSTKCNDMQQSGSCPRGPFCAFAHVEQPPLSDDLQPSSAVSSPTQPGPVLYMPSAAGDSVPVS
Notes: RNA with constant flanks, human and mouse sites, ends assumed
The bound/input enrichment of `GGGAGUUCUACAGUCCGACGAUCGGAGCUUUAUCUAAGGCUAUUGACAGAGGAACAAGGGGUAUCAGUUUUGUCCUGAGUGCUUUGGUAUUUAAUCUUCUUCCCAUCAUGUUUGAAGUGAUGCUUGUCAGUGGUGUUUUGUAUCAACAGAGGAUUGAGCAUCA` is reported as 0.306 ratio.
The bound/input enrichment of `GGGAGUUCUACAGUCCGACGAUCUCCUCCUGCCUCUGCCUCCUGAGUGCUUCAUUAAAGGCUAUGCCACUACACCUGGGAACAUAGUUUCUAAGAAAGCUUCUUGUCUUUUCAUUUGGCAGGUAUCAUGUUCAUUUGUUGUUUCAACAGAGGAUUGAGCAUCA` is reported as 0.163 ratio.
The bound/input enrichment of `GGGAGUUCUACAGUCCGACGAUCAUGGACUUUGAAUUUGCUGCCUGGCAGAUGCUCUACCUGUUCACAUCCCCACAGAGAGUUUACAGAAAUUUUCAUUAUCGAAAACAGACGAAGGACCAGUGGGCCAGAGAUGACCCUGCUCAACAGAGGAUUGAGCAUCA` is reported as 0.314 ratio.
With `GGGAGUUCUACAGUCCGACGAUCUACCAGGGAAUCUGGAAACCCAGGAAAAUACCAAAUCCAGAUUUCUUUGAAGAUCUGGAACCUUUCAGAAUGACUCCUUUUAGUGCUAUUGGUUUGGAGCUGUGGUCCAUGACCUCUGACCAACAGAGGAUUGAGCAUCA` the bound/input enrichment was 0.871 ratio.
The bound/input enrichment of `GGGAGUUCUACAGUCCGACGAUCCAGAACCGAGAGGGCCUGAGGGCCCUACAGAAGGACCUGAGUGUCUCUGAAGAUGUGAUGGUUUGCUUUGGGAACAUGUUCAUCAAAAUGCCUCACCCUAAGACGAAGGAAAUGAUCCAGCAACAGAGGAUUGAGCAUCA` is reported as 0.114 ratio.
`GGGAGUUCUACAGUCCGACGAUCUUGAGACCUUGUGUACUAAGAGCAAGGAAGUAUAGCUAAGAUGUCUAGAUUAUUUAUAUGUAGUAUGGUGGGGAGUGGGGCUGCAAGGAAGGGGGCUGACAUUGUAAAUGAGAAAAUCAGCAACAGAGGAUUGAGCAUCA` has a bound/input enrichment of 9.2 ratio.
With `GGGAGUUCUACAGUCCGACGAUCGCUGGAUCUUCUAAAUACCAGUGGGGCAUUAUGAAAUCCCUUGGCCUGUCUGAUGAAGAGAUAGUAAAAUUUUCUGAAGCAGAACAUUGGCUUGAUUAUUUCCCGCCACUGGCUAUUCAGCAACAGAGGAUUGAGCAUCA` the bound/input enrichment was 0.154 ratio.
`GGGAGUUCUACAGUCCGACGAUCAUGGUUCUUAAAGAUGUGGGAUUGAAAAAAGAAGAUAUUGCAAUGUGGGAAGUAAAUGAAGCCUUUAGUCUGGUUGUACUAGCAAACAUUAAAAUGUUGGAGAUUGAUCCCCAAAAAGUGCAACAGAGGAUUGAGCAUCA` has a bound/input enrichment of 0.534 ratio.
With `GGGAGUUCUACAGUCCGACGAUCGUUCCCGCAGCCUAUGGCCCAGGCCGCCUUGGGUAUUUCUGCUCAAGGUAACCACAUCCCUCUUUAAAAAUUCCGCCGAAAAAGAGAAGACGCUUUACCCGACUCUUUGGGCCGUUAUCUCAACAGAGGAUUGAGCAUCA` the bound/input enrichment was 0.242 ratio.

Sample 3 — target: CCNB3, cyclin fold, Cln2 fusion (human); method: yeast growth competition, sequencing; sample: yeast; notes: weak parent motif; baseline: not given; direction: higher = stronger binding
Starting sequence: WEE1 docking peptide (human); HKTFRKLRLFDTP
For `R5S`, “normalised enrichment score” read 0.0878.
For `K6R`, “normalised enrichment score” read 0.255.
`F10T`: “normalised enrichment score” 0.0514.
For `D11M`, “normalised enrichment score” read 0.271.
For `R8S`, “normalised enrichment score” read 0.764.
For `K6Y`, “normalised enrichment score” read 0.874.
For `R8P`, “normalised enrichment score” read 0.048.

Single results of other studies
For `PhoQ, residues 284 288 289 292 302 303 SASVAL`, the fold induction was 7.1 (PhoP, residues 12 14 15 18 19 LWHVM (Escherichia coli, UniProt P23836); Sort-seq, refers to: YFP reporter; E. coli; PhoQ-PhoP variant library, with: 10 µM Mg2+; baseline: high Mg2+ state, higher = stronger signaling).

A few entries again (sample 2):
The bound/input enrichment of `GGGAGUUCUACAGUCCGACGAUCCAGAACCGAGAGGGCCUGAGGGCCCUACAGAAGGACCUGAGUGUCUCUGAAGAUGUGAUGGUUUGCUUUGGGAACAUGUUCAUCAAAAUGCCUCACCCUAAGACGAAGGAAAUGAUCCAGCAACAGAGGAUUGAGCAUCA` is reported as 0.114 ratio.
The bound/input enrichment of `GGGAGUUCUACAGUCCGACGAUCUCCUCCUGCCUCUGCCUCCUGAGUGCUUCAUUAAAGGCUAUGCCACUACACCUGGGAACAUAGUUUCUAAGAAAGCUUCUUGUCUUUUCAUUUGGCAGGUAUCAUGUUCAUUUGUUGUUUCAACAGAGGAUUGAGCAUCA` is reported as 0.163 ratio.
`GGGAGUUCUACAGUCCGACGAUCAUGGUUCUUAAAGAUGUGGGAUUGAAAAAAGAAGAUAUUGCAAUGUGGGAAGUAAAUGAAGCCUUUAGUCUGGUUGUACUAGCAAACAUUAAAAUGUUGGAGAUUGAUCCCCAAAAAGUGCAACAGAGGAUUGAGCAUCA` has a bound/input enrichment of 0.534 ratio.
`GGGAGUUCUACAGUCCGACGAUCUUGAGACCUUGUGUACUAAGAGCAAGGAAGUAUAGCUAAGAUGUCUAGAUUAUUUAUAUGUAGUAUGGUGGGGAGUGGGGCUGCAAGGAAGGGGGCUGACAUUGUAAAUGAGAAAAUCAGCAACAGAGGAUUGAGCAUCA` has a bound/input enrichment of 9.2 ratio.
